Measured values pooled from the literature.
Parts stem from different laboratories: compare values within a part only. “And” joins repeats or separate records; there may be more than shown.
Chain of UniProt Q86Z02 (whole entry, looked up): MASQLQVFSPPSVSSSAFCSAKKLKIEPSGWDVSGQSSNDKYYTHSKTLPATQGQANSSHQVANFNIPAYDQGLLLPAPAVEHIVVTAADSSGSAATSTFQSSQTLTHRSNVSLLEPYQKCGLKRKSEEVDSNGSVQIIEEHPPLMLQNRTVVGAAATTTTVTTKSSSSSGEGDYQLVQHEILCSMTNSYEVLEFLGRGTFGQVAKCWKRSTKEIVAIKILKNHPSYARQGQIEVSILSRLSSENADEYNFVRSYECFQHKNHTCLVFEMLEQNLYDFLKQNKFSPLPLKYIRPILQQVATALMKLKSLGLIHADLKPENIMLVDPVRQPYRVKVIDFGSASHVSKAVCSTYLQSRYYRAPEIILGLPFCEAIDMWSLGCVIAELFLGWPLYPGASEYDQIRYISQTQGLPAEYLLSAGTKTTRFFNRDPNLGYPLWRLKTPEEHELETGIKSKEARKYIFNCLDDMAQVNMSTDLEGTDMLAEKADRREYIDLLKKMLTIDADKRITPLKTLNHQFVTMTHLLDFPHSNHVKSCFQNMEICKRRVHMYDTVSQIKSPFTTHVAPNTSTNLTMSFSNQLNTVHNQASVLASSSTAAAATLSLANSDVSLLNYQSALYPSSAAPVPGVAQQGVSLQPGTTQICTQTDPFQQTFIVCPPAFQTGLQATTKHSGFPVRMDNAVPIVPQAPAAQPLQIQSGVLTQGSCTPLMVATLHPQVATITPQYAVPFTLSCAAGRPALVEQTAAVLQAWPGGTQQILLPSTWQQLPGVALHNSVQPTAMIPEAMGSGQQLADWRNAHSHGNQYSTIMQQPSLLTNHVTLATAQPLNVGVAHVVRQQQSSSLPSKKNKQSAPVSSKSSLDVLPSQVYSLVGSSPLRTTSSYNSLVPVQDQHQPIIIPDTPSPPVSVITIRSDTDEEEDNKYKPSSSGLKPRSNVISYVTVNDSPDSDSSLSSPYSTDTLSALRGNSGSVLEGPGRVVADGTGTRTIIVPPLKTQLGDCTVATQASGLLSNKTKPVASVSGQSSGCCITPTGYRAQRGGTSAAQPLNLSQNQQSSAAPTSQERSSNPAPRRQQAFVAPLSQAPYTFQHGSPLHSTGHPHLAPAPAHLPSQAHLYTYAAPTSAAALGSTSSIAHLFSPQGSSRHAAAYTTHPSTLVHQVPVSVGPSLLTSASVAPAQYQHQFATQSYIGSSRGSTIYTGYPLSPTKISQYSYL
Chain of UniProt P27448 (whole entry, looked up): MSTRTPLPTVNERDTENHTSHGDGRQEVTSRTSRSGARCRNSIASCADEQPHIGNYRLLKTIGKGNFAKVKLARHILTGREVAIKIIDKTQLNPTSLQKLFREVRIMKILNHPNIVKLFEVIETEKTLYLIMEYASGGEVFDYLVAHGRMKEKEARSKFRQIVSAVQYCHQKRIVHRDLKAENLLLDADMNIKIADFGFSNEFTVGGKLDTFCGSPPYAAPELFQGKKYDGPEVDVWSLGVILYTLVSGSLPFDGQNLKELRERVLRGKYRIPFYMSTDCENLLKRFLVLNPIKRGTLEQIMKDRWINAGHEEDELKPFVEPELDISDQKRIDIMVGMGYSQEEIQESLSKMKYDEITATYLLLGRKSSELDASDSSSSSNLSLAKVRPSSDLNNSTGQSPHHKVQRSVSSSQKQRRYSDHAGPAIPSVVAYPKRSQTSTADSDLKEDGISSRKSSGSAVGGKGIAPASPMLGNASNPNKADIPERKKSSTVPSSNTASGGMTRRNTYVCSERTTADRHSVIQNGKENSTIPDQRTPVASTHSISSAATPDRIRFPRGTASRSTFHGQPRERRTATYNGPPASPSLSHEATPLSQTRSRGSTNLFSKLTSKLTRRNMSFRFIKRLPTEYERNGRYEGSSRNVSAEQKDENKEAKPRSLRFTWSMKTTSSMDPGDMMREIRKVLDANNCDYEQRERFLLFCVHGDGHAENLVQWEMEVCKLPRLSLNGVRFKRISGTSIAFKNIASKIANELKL
Chain of UniProt Q16512 (whole entry, looked up): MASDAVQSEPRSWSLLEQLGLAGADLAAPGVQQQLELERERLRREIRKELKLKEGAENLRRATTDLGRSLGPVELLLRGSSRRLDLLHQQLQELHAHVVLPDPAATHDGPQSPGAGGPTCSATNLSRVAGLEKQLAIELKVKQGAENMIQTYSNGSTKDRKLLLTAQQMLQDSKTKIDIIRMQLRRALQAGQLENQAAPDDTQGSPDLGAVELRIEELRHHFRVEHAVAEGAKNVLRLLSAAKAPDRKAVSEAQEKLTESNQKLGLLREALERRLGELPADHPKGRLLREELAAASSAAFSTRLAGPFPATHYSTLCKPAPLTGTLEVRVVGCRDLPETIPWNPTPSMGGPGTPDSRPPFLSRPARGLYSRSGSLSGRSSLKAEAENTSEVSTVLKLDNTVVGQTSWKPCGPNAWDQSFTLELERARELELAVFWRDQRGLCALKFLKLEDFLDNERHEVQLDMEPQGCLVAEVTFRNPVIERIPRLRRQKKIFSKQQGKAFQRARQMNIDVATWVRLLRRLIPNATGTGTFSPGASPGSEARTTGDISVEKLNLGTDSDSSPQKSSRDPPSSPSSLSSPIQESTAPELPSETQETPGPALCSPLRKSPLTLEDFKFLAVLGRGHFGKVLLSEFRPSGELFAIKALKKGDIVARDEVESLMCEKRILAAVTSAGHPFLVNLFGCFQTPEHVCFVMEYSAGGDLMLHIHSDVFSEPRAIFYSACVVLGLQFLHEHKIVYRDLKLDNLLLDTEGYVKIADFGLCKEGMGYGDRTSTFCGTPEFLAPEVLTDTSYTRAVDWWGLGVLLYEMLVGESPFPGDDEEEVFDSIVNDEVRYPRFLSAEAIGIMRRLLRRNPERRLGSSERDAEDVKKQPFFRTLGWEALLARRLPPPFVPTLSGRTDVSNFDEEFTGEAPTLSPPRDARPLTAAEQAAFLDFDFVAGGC

Sample 1
Cell line: mouse MPNST tumor cells
Method: high-content nuclear imaging
Refers to: cell number
Tested at: 10 µM
Time: 12 h
Setting: mean of 2 replicates
Relative to: plate mean
Reading: higher = more cells
For `CCNC(=O)[C@H]1O[C@@H](n2cnc3c(N)ncnc32)[C@H](O)[C@@H]1O`, the nuclei count was 0.678 z-score.
`O=C(CCCN1CCC2(CC1)C(=O)NCN2c1ccccc1)c1ccc(F)cc1` gave a nuclei count of 1.44 z-score and 1.99 z-score.
With `NCCc1ccccn1` the nuclei count was 1.5 z-score.
For `CN[C@@H]1Cc2cccc3[nH]c(=O)n(c23)C1`, the nuclei count was 1.81 z-score.

Sample 2
SMILES: CC(=O)N[C@@H](Cc1c[nH]c2ccccc12)C(=O)N[C@@H](CCC(=O)C=[N+]=[N-])C(=O)OC(C)C
C57BL/6 CES1-/- mouse, both sexes; 0.1 mg/kg, day 9 — body weight: 100% and 96.6% and 105%.
It gave 105% and 96% and 100% and 104% and 93% for body weight (C57BL/6 CES1-/- mouse, EL4 tumour; intravenous, 1 mg/kg DON equivalent, treatment day 8, 5 days per week; relative to: baseline).
For C57BL/6 CES1-/- mouse, both sexes; 0.1 mg/kg, day 15: body weight read 96.2% and 100% and 104% and 105% and 96.6% and 114%.
C57BL/6 CES1-/- mouse, both sexes; 0.1 mg/kg, day 8 — body weight: 100% and 104% and 95.5%.
C57BL/6 CES1-/- mouse, EL4 tumour; intravenous, 1 mg/kg DON equivalent, treatment day 9, 5 days per week; relative to: baseline — body weight: 93% and 96% and 97% and 100% and 105% and 104%.

Sample 3
Compound: CN[C@@H]1C[C@H]2O[C@@](C)([C@@H]1OC)n1c3ccccc3c3c4c(c5c6ccccc6n2c5c31)C(=O)NC4
Read-out: enzyme activity
Mode: inhibitor
Tested at: 0.5 µM
Relative to: control
The remaining activity was 0.716% and 4.76% (MARK3 (Homo sapiens, UniProt P27448)).
The remaining activity was 0.148% and 1.37% (PKN1 (Homo sapiens, UniProt Q16512)).
It gave 96.5% and 101% for remaining activity (HIPK1 (Homo sapiens, UniProt Q86Z02)).

Further values, each from its own experiment
The remaining compound of `Cc1cc(C)nc(N=C(N)NCCc2cnc[nH]2)n1` is reported as 74.1% (mouse, microsomes or S9; 2 µM, 0.5 h).

Excerpt of the above (sample 3):
The remaining activity was 0.716% and 4.76% (MARK3 (Homo sapiens, UniProt P27448)).
